Measured values pooled from the literature.
Each numbered part is a random draw from the data of one study; scales do not carry over between parts. Values joined by “and” are separate records of one study, mostly repeats; a detail may differ.
Sequence of UniProt Q9P289 (whole entry, looked up): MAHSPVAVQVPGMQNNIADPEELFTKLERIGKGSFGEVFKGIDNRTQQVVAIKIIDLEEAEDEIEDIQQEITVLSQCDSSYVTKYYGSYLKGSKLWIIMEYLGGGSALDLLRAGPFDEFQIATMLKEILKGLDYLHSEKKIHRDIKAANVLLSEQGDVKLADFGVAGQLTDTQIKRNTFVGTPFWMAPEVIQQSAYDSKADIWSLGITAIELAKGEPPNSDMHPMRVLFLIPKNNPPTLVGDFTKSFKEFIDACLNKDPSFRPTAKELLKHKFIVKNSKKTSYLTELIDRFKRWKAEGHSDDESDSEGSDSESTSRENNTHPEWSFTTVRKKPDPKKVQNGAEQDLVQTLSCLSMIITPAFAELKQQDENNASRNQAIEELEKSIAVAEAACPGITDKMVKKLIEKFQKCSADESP
Sequence of UniProt O96017 (whole entry, looked up): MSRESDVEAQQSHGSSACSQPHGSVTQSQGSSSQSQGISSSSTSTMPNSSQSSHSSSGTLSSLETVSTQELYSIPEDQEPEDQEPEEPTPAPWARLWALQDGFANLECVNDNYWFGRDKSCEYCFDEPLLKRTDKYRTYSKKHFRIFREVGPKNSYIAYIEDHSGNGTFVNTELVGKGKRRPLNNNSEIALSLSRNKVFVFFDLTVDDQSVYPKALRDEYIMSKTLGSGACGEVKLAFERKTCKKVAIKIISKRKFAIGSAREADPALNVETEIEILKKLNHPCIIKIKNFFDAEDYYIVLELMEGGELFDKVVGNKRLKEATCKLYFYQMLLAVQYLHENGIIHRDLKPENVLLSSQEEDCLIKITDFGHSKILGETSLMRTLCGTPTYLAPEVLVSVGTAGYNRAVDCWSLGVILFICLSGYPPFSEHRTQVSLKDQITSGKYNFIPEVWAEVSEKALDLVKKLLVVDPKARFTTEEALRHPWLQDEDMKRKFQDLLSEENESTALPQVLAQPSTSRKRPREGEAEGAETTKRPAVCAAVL
Sequence of UniProt Q13177 (whole entry, looked up): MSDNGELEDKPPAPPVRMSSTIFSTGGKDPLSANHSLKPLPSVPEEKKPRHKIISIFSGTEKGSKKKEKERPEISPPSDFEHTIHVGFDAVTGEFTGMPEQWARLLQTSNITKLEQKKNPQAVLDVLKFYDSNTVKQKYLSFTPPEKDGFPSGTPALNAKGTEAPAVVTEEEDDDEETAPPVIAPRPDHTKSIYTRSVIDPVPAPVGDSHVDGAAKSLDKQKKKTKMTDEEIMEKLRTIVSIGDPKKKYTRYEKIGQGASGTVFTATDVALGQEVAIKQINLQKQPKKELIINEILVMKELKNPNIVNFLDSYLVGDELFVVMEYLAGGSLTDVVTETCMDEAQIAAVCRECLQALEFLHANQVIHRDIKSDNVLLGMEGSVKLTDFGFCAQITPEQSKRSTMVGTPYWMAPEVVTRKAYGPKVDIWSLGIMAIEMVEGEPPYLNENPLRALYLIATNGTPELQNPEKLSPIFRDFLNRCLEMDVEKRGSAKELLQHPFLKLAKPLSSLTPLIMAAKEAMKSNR
Sequence of UniProt Q9HBH9 (whole entry, looked up): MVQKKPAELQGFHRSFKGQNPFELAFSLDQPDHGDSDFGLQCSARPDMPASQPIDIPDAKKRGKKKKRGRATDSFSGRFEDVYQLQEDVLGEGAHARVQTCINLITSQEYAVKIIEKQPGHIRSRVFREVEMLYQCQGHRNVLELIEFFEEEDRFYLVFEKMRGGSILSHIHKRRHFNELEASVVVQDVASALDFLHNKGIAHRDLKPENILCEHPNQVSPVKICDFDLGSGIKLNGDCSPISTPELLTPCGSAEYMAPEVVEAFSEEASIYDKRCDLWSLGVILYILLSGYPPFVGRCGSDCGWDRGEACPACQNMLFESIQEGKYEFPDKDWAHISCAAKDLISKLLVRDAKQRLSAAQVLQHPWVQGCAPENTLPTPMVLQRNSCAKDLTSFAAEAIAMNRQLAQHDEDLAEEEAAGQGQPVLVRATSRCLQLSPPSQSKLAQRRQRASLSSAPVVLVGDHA

Set 1
SMILES: NC/C(=C\F)COc1cc(Cn2c(=S)[nH]c(=O)c3[nH]cnc32)cc(C(F)(F)F)c1
Measurement: inhibition
AOC3: Amine oxidase [copper-containing] 3 (AOC3, Homo sapiens, UniProt Q16853)
Sequence of UniProt Q16853 (whole entry, looked up): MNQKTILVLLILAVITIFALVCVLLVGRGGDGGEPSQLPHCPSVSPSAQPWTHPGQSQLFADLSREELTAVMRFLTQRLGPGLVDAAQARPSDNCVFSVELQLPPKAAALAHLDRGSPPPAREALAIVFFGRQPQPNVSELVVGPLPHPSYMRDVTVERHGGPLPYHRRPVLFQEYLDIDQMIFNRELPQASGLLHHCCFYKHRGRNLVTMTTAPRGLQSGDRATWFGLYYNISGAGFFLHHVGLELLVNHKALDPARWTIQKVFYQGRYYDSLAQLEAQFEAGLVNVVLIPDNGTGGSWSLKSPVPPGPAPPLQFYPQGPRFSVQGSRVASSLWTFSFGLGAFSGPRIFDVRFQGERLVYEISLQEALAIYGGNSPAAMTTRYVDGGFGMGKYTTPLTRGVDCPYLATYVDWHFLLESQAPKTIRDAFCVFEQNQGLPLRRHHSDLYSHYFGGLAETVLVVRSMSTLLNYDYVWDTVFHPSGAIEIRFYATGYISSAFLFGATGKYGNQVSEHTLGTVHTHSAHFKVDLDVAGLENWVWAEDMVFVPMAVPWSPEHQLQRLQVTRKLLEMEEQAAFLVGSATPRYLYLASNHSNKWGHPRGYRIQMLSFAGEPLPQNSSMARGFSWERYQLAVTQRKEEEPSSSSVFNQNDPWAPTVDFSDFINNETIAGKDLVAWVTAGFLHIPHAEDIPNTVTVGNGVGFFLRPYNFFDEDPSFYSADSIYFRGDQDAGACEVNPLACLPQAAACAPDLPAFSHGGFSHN
MPO: Myeloperoxidase (MPO, Homo sapiens, UniProt P05164)
Sequence of UniProt P05164 (whole entry, looked up): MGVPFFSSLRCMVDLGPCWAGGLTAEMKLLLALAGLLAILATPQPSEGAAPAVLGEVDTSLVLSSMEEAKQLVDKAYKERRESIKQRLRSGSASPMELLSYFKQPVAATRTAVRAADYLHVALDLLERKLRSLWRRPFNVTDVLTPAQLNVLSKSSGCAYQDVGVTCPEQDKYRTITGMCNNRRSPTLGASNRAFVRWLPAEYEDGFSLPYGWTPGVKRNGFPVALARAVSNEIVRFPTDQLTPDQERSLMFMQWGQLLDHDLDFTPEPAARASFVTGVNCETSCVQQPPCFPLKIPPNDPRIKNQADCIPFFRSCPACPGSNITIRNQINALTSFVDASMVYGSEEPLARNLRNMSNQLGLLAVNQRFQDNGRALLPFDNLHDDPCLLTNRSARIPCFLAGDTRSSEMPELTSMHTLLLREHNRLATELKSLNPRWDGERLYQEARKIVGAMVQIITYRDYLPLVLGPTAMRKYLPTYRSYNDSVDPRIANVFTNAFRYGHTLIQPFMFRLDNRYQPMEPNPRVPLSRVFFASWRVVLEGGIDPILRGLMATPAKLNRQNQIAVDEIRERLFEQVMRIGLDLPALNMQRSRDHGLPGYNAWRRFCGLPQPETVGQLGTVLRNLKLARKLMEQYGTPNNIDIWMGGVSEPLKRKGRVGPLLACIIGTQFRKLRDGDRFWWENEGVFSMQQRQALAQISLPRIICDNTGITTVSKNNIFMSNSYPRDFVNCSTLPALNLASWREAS
AOC3; enzyme activity, inhibitor, fluorescence; 13.7 nM: -0.236% and -2.87% and -1.47% and 0.311%
AOC3; enzyme activity, inhibitor, fluorescence; 0.3704 µM: 12.4% and 9.08% and 18.8% and 13.3%
MPO; Amplex Red; 0.0206 µM: 73.9%
MPO; enzyme activity, inhibitor, fluorescence; 1.667 µM: 100%
MPO; enzyme activity, inhibitor, fluorescence; 61.7 nM: 93%
MPO; enzyme activity, inhibitor, fluorescence; 3.333 µM: 101%
MPO; enzyme activity, inhibitor, fluorescence; 1.111 µM: 99.6%
AOC3; enzyme activity, inhibitor, fluorescence; 0.1235 µM: 4.6% and -0.386% and 1.57% and 2.49%

Set 2
SMILES: C[C@@H]1CN(c2ccc(-c3cc(C(=O)NCCOCCOCCOCCOCCNC(=O)Cn4cc(-c5[nH]cc(C(=O)N[C@@H](CC(N)=O)c6ccc(F)c(Cl)c6)c5-c5ccc(Cl)cc5F)cn4)ccc3F)cc2NC(=O)c2c[nH]c(=O)cc2C(F)(F)F)C[C@H](C)N1C
Observed: thermal unfolding
Technique: differential scanning fluorimetry
Concentration: 5.5 µM
Direction: higher = more unfolded
Measurement: SYPRO Orange fluorescence
DCAF1: DDB1- and CUL4-associated factor 1 (DCAF1, Homo sapiens, UniProt Q9Y4B6)
Sequence of UniProt Q9Y4B6 (whole entry, looked up): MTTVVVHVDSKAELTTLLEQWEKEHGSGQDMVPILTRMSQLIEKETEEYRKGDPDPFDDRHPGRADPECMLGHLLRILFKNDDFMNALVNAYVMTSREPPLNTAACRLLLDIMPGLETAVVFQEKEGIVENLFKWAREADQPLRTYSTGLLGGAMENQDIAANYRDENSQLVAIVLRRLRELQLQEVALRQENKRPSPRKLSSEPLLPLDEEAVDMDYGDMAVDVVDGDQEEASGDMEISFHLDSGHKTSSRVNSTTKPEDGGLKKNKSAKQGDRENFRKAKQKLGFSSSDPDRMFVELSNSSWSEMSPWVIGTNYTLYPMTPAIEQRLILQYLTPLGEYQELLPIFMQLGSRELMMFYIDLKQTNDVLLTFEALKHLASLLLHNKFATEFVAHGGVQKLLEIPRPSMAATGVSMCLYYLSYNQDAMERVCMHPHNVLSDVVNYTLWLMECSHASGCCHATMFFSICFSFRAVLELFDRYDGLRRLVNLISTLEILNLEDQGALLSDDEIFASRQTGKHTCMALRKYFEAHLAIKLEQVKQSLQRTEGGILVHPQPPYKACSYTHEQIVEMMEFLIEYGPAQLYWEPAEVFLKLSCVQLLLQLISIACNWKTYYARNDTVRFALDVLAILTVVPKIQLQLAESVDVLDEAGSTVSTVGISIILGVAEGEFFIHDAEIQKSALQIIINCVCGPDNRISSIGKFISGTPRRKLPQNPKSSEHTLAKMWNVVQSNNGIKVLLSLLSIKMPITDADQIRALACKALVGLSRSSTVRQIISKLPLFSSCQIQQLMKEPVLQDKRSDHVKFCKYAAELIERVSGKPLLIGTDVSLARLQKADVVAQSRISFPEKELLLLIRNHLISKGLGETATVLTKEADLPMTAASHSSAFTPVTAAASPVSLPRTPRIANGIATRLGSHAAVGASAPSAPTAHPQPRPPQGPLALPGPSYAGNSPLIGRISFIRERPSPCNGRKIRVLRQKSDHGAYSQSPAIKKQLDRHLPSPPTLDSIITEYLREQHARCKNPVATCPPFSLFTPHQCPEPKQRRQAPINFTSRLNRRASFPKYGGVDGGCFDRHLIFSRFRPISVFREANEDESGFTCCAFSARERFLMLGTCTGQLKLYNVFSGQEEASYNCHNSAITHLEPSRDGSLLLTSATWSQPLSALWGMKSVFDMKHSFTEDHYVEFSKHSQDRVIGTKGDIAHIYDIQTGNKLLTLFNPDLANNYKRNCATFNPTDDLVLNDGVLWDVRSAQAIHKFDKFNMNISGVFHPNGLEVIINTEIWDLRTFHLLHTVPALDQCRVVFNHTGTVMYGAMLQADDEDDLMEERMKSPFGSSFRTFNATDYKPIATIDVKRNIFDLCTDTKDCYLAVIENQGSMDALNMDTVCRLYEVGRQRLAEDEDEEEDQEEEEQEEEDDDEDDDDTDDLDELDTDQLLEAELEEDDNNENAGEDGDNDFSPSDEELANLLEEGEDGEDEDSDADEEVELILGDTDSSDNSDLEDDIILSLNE
WDR5: WD repeat-containing protein 5 (WDR5, Homo sapiens, UniProt P61964)
DCAF1; 43.4 °C: 11600 a.u.
DCAF1; 72.81 °C: 51600 a.u.
DCAF1; 34.4 °C: 8670 a.u.
WDR5; 40.2 °C: 14200 a.u.
DCAF1; 92.61 °C: 32500 a.u.
DCAF1; 26.2 °C: 7610 a.u.
WDR5; 90.41 °C: 42900 a.u.
WDR5; 71.01 °C: 7210 a.u.
WDR5; 68.81 °C: 6740 a.u.
WDR5; 78.01 °C: 17300 a.u.
DCAF1; 76.41 °C: 47800 a.u.

Set 3
SMILES: CC[C@@]1(c2cccc(-c3c(F)cncc3OC)c2)C2=C(Nc3n[nH]cc31)[C@H](F)C(C)(C)CC2=O (single isomer, unassigned)
Concentration: 1 µM
Measurement: remaining binding
ALK (Homo sapiens, UniProt Q9UM73); binding, competition with immobilised ligand: 81%
CDK13 (Homo sapiens, UniProt Q14004); binding, competition with immobilised ligand: 70%
AXL (Homo sapiens, UniProt P30530); kinase binding, KINOMEscan; reference: DMSO control: 100%
MAP4K3 (Homo sapiens, UniProt Q8IVH8); kinase binding, KINOMEscan; reference: DMSO control: 100%
MAP3K4 (Homo sapiens, UniProt Q9Y6R4); kinase binding, KINOMEscan; reference: DMSO control: 90%
MTOR (Homo sapiens, UniProt P42345); binding, competition with immobilised ligand: 100%
PIP5K1A (Homo sapiens, UniProt Q99755); binding, competition with immobilised ligand: 59%
CDKL1 (Homo sapiens, UniProt Q00532); binding, competition with immobilised ligand: 94%
TEK (Homo sapiens, UniProt Q02763); kinase binding, KINOMEscan; reference: DMSO control: 65%
PRKD3 (Homo sapiens, UniProt O94806); kinase binding, KINOMEscan; reference: DMSO control: 76%
CAMK2D (Homo sapiens, UniProt Q13557); binding, competition with immobilised ligand: 98%
TNIK (Homo sapiens, UniProt Q9UKE5); binding, competition with immobilised ligand: 63%
EGFR (Homo sapiens, UniProt P00533, del747-752/P753S); binding, competition with immobilised ligand: 89%
BUB1 (Homo sapiens, UniProt O43683); kinase binding, KINOMEscan; reference: DMSO control: 64%
EGFR (Homo sapiens, UniProt P00533, T790M); binding, competition with immobilised ligand: 98%

Set 4
Structure (SMILES): CN(C1COC1)C(C)(C)/C=C(\C#N)C(=O)N1CCC[C@H]1Cn1nc(-c2ccc(Oc3ccccc3)cc2F)c2c(N)ncnc21
Observed: kinase activity
Measurement: inhibition
PAK2 (Homo sapiens, UniProt Q13177); 1 µM: 0%
Cyclin-dependent kinase 3, with cyclin E (CDK3, Homo sapiens, UniProt Q00526); 1 µM: -8%
LCK (Homo sapiens, UniProt P06239); 0.1 µM: 19%
PLK3 (Homo sapiens, UniProt Q9H4B4); 1 µM: 13%
MKNK2 (Homo sapiens, UniProt Q9HBH9); 0.1 µM: 5%
Tyrosine-protein kinase Lyn, isoform A (LYN, Homo sapiens, UniProt P07948); 0.1 µM: 0%
CDC42BPA (Homo sapiens, UniProt Q5VT25); 0.1 µM: 5%
PAK3 (Homo sapiens, UniProt O75914); 1 µM: -4%
TNK2 (Homo sapiens, UniProt Q07912); 1 µM: -3%
STK26 (Homo sapiens, UniProt Q9P289); 0.1 µM: 8%
PDGFRB (Homo sapiens, UniProt P09619); 0.1 µM: -4%
CHEK2 (Homo sapiens, UniProt O96017); 0.1 µM: 4%
TAOK2 (Homo sapiens, UniProt Q9UL54); 1 µM: 3%
MERTK (Homo sapiens, UniProt Q12866); 0.1 µM: 2%
TEC (Homo sapiens, UniProt P42680); 0.1 µM: 89%
SPHK2 (Homo sapiens, UniProt Q9NRA0); 0.1 µM: 6%
NTRK2 (Homo sapiens, UniProt Q16620); 1 µM: -1%
MAP4K5 (Homo sapiens, UniProt Q9Y4K4); 1 µM: 5%
ROCK2 (Homo sapiens, UniProt O75116); 0.1 µM: 2%
